# Results pooled from the literature.
# Lines come from different studies, so protocols differ. “And” joins repeats or separate records; there may be more than shown.
# FYN: Tyrosine-protein kinase Fyn (FYN, Homo sapiens, UniProt P06241)
# Chain of UniProt P06241 (whole entry, looked up): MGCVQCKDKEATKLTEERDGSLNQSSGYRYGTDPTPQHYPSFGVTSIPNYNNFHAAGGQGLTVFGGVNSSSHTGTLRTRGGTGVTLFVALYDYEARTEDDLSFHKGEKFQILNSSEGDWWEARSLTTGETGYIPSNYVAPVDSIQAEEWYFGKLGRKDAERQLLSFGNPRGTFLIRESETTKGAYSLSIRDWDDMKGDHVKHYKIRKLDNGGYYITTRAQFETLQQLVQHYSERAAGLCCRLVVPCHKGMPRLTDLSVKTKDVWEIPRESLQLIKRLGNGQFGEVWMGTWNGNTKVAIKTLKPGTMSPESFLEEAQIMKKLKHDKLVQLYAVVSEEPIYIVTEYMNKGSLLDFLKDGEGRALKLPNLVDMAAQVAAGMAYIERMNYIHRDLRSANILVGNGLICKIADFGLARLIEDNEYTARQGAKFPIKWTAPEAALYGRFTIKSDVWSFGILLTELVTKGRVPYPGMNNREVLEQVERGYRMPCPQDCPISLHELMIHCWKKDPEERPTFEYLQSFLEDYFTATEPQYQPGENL
SMILES,target,test,conditions,how to read,quantity,result
C=CC(=O)Nc1cccc(-c2cnc3[nH]cc(C(=O)NC(C)(C)C)c3n2)c1,FYN,kinase activity,0.1 µM,,inhibition,25% and 27%
CC(C)=CC1OC(C)(C)C2C=C3C(=O)C(Cl)=CC(O)C3C3C(O)C4OC4C(=O)C132 (stereo not drawn),FYN,"cell-free assay, competition with immobilised ligand",10 µM,,remaining binding,100%
O=C=[N][Ru-4]123([n]4c5ccc(O)cc5c5c6c(c7cc(F)c[n+]1c7c54)C(=O)NC6=O)[S+]1CC[S+]2CC[S+]3CC1 (stereo not drawn),FYN,enzyme activity,"100 nM, human enzyme, together with: 10 µM ATP",reference: untreated,remaining activity,77%
Cc1cnc2nc1Nc1cccc(c1)COC/C=C/COCc1cc(ccc1OCCN1CCOCC1)N2,FYN,binding,0.1 µM,,remaining binding,75%
CNC(=O)C1CCN(c2cc(C)c(F)cc2NC(=O)c2ccc(-c3cc(O)ccc3C)c(C)c2)CC1,FYN,"binding, competition with immobilised ligand",1 µM,,remaining binding,9.6%
O=C(O)CCC(=O)c1cccc(NS(=O)(=O)c2c[nH]c3ncccc23)c1,FYN,"kinase activity, radiometric",10 µM,,remaining activity,84%
Nc1ncc2c(n1)-c1c([nH]c3ccc(C4=CCOCC4)cc13)CCC2,FYN,"binding, competition with immobilised ligand",1 µM,,remaining binding,100%
COCC12C(=O)NC3C4(C(OC)CC1O)C1CC5(O)C(OC)C(O)C(OC(C)=O)(C1C5OC(=O)c1ccccc1)C3(O)C(OC)C24 (stereo not drawn),FYN,"kinase activity, inhibitor, ProQinase kinase profiling",25 µM,reference: control,remaining activity,85% and 88%
COc1ccc(C(=O)/C=C/c2ccccc2-c2c[nH]c3ccc(C#N)cc23)c(O)c1,FYN,"enzyme activity, inhibitor",20 µM,,inhibition,-34%
Cc1ccc(-c2c(/C=C(\C#N)C(=O)NC(C)C)n(CCCO)c3ncnc(N)c23)cc1,FYN,"cell-free assay, competition with immobilised ligand",1 µM,,remaining binding,52%
C=CC(=O)N1CCCC(n2c(=O)c3ncccc3n(Cc3ccc(Oc4ccccc4)cc3)c2=O)C1 (stereo not drawn),FYN,"cell-free assay, competition with immobilised ligand",1 µM,,remaining binding,90%
CCn1cc(C(=O)O)c(=O)c2c(N)c(F)c(NC3CCCCC3)cc21,"Tyrosine-protein kinase Fyn, isoform a (FYN, Homo sapiens, UniProt P06241)",kinase activity,"0.1 µM, together with: ATP at Km",,inhibition,4.8%
CCN1CCN(Cc2ccc(C(=O)Nc3ccc(C)c(NCc4cnc5[nH]ccc5c4OC)c3)cc2C(F)(F)F)CC1,FYN,"binding, competition with immobilised ligand",1 µM,,remaining binding,6%
NC(=O)[C@@H](O)C[C@H]1CCc2sc3ncnc(O[C@H]4CC[C@H](N5CCOCC5)CC4)c3c21,FYN,"enzyme activity, inhibitor",10 µM,,inhibition,47%
Cc1cccc(O[C@H]2CCC[C@@H](C(C)CNCc3ccncc3)C2)c1 (relative stereo),FYN,"enzyme activity, inhibitor",10 µM,,inhibition,-7%

# Repeated from above:
SMILES,target,test,conditions,how to read,quantity,result
COCC12C(=O)NC3C4(C(OC)CC1O)C1CC5(O)C(OC)C(O)C(OC(C)=O)(C1C5OC(=O)c1ccccc1)C3(O)C(OC)C24 (stereo not drawn),FYN,"kinase activity, inhibitor, ProQinase kinase profiling",25 µM,reference: control,remaining activity,85% and 88%
Cc1cnc2nc1Nc1cccc(c1)COC/C=C/COCc1cc(ccc1OCCN1CCOCC1)N2,FYN,binding,0.1 µM,,remaining binding,75%
